Published values of several laboratories.
Numbers after ± are the reported error.
ALPL: Alkaline phosphatase, tissue-nonspecific isozyme (ALPL, Homo sapiens, UniProt P05186)
UniProt P05186, sequence (whole entry, looked up): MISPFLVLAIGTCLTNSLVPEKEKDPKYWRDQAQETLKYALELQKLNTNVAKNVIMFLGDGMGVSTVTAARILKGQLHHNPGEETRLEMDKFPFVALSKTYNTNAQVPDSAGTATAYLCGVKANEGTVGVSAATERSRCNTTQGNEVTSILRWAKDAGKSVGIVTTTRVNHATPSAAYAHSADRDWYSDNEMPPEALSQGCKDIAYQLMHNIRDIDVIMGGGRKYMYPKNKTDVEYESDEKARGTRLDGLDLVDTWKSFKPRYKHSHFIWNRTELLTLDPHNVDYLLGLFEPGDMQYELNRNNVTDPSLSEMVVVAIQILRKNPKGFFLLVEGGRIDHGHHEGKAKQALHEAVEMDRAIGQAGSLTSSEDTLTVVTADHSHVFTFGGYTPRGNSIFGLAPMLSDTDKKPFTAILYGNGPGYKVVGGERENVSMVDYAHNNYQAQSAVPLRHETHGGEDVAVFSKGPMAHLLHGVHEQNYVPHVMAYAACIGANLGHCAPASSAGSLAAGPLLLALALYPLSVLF
Genome polyprotein NS2B-NS3 protease: Genome polyprotein, NS2B-NS3 protease (ZIKV, UniProt A0A024B7W1)
topA: DNA topoisomerase 1 (topA, Escherichia coli, UniProt P06612)
UniProt P06612, sequence (whole entry, looked up): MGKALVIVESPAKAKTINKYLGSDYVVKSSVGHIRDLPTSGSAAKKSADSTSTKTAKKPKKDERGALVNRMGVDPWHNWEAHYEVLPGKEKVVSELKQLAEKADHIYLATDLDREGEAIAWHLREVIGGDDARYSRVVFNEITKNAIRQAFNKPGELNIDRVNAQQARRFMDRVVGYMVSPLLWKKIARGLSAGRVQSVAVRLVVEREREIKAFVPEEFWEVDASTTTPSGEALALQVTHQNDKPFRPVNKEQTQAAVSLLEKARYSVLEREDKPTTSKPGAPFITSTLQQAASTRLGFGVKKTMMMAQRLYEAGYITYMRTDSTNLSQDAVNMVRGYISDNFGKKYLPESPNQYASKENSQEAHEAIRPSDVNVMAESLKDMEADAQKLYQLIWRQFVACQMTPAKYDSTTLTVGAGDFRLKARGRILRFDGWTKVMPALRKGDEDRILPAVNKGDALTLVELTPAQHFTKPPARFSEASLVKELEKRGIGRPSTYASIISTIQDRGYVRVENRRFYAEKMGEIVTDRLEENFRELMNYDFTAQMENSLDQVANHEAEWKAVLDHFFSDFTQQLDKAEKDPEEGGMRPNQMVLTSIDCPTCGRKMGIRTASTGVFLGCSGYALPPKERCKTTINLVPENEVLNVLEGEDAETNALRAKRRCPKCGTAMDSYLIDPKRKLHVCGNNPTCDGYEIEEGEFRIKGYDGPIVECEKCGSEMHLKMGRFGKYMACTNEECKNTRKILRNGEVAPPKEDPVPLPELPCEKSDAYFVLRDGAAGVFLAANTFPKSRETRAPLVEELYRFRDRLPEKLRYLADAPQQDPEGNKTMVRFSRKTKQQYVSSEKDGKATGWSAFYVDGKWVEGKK
Genome polyprotein protease: Genome polyprotein, protease (dengue virus type 2, UniProt P29990)
Dual specificity protein phosphatase 5: Dual specificity protein phosphatase 5 (Homo sapiens, UniProt Q16690)
UniProt Q16690, sequence (whole entry, looked up): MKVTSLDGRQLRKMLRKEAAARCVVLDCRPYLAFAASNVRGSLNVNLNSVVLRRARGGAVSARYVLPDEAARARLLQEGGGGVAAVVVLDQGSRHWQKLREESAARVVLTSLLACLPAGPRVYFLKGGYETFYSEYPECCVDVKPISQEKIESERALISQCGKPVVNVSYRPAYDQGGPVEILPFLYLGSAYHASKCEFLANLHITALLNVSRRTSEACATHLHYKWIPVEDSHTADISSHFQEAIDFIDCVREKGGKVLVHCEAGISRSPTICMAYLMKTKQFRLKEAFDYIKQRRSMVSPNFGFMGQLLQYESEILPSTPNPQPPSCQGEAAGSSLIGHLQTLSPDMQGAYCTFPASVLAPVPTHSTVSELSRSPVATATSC
UniProt P28074, sequence (whole entry, looked up): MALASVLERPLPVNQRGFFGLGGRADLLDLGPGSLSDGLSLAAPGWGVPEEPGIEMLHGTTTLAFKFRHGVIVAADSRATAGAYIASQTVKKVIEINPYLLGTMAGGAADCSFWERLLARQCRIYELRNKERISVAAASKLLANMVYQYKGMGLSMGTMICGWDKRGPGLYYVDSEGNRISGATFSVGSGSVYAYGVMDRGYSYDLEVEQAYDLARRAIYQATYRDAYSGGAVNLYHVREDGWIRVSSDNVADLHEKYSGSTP
UniProt P37136, sequence (whole entry, looked up): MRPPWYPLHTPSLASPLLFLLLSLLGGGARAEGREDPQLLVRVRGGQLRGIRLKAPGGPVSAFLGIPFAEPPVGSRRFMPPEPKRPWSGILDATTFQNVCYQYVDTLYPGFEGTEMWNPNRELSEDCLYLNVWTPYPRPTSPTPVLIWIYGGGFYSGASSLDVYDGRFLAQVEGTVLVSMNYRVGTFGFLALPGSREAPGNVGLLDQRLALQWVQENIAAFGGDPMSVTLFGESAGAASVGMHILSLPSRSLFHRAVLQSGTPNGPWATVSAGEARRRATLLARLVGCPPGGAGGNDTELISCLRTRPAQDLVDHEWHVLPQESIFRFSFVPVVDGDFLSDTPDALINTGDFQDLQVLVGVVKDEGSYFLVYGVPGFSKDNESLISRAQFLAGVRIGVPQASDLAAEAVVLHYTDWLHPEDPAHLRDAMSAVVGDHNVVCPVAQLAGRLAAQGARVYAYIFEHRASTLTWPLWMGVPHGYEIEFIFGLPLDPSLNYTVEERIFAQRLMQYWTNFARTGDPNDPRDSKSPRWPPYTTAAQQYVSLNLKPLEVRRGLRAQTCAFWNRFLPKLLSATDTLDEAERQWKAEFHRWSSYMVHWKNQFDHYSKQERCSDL
UniProt B2RXH2, sequence (whole entry, looked up): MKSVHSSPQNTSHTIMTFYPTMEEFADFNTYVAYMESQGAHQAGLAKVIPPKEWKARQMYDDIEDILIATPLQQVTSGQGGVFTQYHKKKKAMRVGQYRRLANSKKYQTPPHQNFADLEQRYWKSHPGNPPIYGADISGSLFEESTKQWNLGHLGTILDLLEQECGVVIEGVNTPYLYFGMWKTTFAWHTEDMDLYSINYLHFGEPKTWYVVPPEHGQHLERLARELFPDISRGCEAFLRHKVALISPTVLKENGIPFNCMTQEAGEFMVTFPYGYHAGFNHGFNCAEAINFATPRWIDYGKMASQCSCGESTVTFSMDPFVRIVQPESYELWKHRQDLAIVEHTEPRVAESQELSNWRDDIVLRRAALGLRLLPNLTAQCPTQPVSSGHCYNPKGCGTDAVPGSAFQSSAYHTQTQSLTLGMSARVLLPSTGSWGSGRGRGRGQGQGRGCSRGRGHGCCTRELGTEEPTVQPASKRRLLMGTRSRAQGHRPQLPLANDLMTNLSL
UniProt P00163, sequence (whole entry, looked up): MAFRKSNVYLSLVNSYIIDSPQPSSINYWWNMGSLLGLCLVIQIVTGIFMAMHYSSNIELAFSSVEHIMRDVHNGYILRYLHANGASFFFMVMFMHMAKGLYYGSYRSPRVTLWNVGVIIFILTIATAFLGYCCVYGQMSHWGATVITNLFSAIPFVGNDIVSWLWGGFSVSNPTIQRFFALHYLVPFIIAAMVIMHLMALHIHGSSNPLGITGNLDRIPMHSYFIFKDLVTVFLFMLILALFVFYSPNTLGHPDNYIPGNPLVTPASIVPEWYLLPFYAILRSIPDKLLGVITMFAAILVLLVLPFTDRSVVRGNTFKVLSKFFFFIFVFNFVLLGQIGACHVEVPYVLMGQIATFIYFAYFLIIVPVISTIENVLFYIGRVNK
UniProt Q2FV99, sequence (whole entry, looked up): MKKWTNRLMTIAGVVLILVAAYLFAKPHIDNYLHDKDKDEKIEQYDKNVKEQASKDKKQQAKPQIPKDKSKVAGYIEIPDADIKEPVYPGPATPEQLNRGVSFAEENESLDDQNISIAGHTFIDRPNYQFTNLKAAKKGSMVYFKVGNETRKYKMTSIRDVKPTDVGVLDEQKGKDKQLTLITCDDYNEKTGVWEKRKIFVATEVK
UniProt P11473, sequence (whole entry, looked up): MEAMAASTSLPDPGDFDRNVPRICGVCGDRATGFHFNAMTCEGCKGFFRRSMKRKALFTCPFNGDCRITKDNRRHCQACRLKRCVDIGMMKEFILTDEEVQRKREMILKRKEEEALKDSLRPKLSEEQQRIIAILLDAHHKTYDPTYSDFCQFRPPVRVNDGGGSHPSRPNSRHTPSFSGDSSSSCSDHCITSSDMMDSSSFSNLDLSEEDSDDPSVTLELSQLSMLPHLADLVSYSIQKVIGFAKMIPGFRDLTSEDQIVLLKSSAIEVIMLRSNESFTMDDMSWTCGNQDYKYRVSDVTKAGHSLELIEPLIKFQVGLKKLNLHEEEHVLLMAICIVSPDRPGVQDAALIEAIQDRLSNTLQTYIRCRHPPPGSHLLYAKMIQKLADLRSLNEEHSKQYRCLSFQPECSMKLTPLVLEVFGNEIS
UniProt P08067, sequence (whole entry, looked up): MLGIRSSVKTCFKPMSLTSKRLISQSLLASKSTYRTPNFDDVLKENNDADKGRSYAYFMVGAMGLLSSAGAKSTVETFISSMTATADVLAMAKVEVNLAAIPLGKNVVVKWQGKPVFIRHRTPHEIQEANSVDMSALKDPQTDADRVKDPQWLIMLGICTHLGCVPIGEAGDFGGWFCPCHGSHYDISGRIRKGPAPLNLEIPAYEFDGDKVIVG
UniProt Q6W5P4, sequence (whole entry, looked up): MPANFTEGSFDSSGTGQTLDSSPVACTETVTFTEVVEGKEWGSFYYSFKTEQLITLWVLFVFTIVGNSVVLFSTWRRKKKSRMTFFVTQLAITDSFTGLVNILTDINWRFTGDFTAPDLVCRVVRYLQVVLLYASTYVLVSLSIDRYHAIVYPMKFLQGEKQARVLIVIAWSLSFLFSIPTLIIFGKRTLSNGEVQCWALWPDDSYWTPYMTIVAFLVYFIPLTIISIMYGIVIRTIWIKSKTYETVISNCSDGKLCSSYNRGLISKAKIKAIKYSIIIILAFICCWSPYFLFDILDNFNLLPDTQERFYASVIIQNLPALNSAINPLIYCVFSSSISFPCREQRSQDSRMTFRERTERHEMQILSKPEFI

Structure (SMILES)	target or system	assay	test system	setting	endpoint	result
CC(C)C[C@H](NC(=O)[C@H](C)NC(=O)[C@H](CC(N)=O)NC(=O)[C@H](CCC(=O)O)NC(=O)[C@@H](N)CCCCN)C(=O)N[C@@H](CC(C)C)C(=O)N[C@@H](CCCNC(=N)N)C(=O)N[C@@H](Cc1ccc(O)cc1)C(=O)N[C@@H](CC(C)C)C(=O)N[C@@H](CC(C)C)C(=O)N[C@@H](CC(=O)O)C(=O)N[C@@H](CCCCN)C(=O)N[C@@H](CC(=O)O)C(=O)NCC(=O)NCC(=O)NCC(=O)N[C@@H](CCCNC(=N)N)C(=O)N[C@@H](CCCNC(=N)N)C(=O)N[C@@H](CCCNC(=N)N)C(=O)N[C@@H](CCCNC(=N)N)C(=O)N[C@@H](CCCNC(=N)N)C(=O)N[C@@H](CCCNC(=N)N)C(=O)N[C@@H](CCCNC(=N)N)C(=O)N[C@@H](CCCNC(=N)N)C(=O)N[C@@H](CCCNC(=N)N)C(N)=O	Vitamin D3 receptor (VDR, Homo sapiens, UniProt P11473)	reporter gene, antagonist, dual-luciferase	MCF7	16 h, together with: calcitriol 30 nM	IC50	2.17 ± 0.62 µM
O=C(O[C@@H]1Cc2c(O)cc(O)cc2O[C@@H]1c1cc(O)c(O)c(O)c1)c1cc(O)c(O)c(O)c1	KDM4E (Homo sapiens, UniProt B2RXH2)	enzyme activity, inhibitor, fluorescence			IC50	3.2 µM
O=C1c2ccccc2SC(c2ccc([N+](=O)[O-])cc2)N1CCN1CCCCC1 (stereo not shown)	Ache (Rattus norvegicus, UniProt P37136)	inhibitor, Ellman method	rat cerebral cortex homogenate	together with: acetylthiocholine	IC50	121 µM
Oc1c(Cl)cc(-c2ccc(Cl)cc2Cl)cc1Cl	Sult1a1 (Rattus norvegicus, UniProt P17988)	enzyme activity, inhibitor			IC50	0.85 µM
CCCc1nn(C)c2c(=O)[nH]c(-c3cc(S(=O)(=O)N4CCN(C)CC4)ccc3OCC)nc12	SLCO1B3 (Homo sapiens, UniProt Q9NPD5)	transport, inhibitor		10 (unit not given), pre-incubation, together with: cholecystokinin	IC50	12.8 ± 0.04 µM
COc1ccc(C)cc1S(=O)(=O)Nc1cccnc1	ALPL	enzyme activity, inhibitor, absorbance			IC50	0.945 µM
Oc1ccc(-c2cccc(Cl)c2)cc1Cl	SULT1E1 (Homo sapiens, UniProt P49888)	enzyme activity, inhibitor, radiometric		pH 7.4	IC50	0.0072 µM
COc1cc([C@@H]2c3cc4c(cc3[C@@H](O)[C@H]3COC(=O)[C@H]23)OCO4)cc(OC)c1OC	tubulin alpha/beta (Leishmania infantum, UniProt A0A381MCS3+A4HTR0)	tubulin polymerization, inhibitor		37 °C	IC50	2.7 ± 0.1 µM
NCc1ccc(-c2ncc(OCC3CCNCC3)nc2-c2cccc3[nH]ccc23)cc1	Genome polyprotein NS2B-NS3 protease	inhibitor	Zika virus		IC50	7.1 µM
Clc1ccc(-c2nn3c(COc4cccc(OCc5nnc6sc(-c7ccc(Cl)cc7)nn56)c4)nnc3s2)cc1	Genome polyprotein NS2B-NS3 protease	enzyme activity, inhibitor	Zika virus	pH 8.0, together with: 20 µM Pyr-RTKR-AMC	IC50	3.01 µM
CN[C@@](C)(C[18F])C(=O)O	DU-145 tumour model		host not given, liver	2 h, tumour-bearing	tracer uptake	4.3 %ID/g
O=C(O)c1ccc(OC(=O)c2ccc(O)cc2O)cc1O	topA	enzyme activity, inhibitor			IC50	> 1000 µM
CC(C)=CCC/C(C)=C/CC/C(C)=C/CC[C@]1(C)CCc2c(C)c(O)c(C)c(C)c2O1	ALOX5 (Homo sapiens, UniProt P09917)	enzyme activity, inhibitor, absorbance			IC50	> 10 µM
NCc1ccc(-c2ncc(OCC3CCNCC3)nc2-c2ccc(N3CCCCC3)cc2)cc1	Genome polyprotein NS2B-NS3 protease	inhibitor	Zika virus		IC50	> 10 µM
C[C@@H]1C[C@H]2[C@@H]3CCC4=CC(=O)C=C[C@]4(C)[C@@]3(Cl)[C@@H](O)C[C@]2(C)[C@@]1(OC(=O)c1ccco1)C(=O)CCl	ABCC1 (Homo sapiens, UniProt P33527)	substrate efflux, inhibitor, flow cytometry	ABCC1-overexpressing SupT1-Vin cells	together with: BODIPY-FL-prazosin 100 nM	IC50	1 ± 0.5 µM
CC(C)C[C@H](NC(=O)CNC(=O)[C@H](CC(C)C)NC(=O)[C@H](CC(C)C)NC(=O)[C@@H](N)Cc1ccccc1)C(=O)N[C@@H](CC(C)C)C(=O)N[C@H](C(=O)N[C@@H](Cc1c[nH]cn1)C(=O)N[C@H](C(=O)O)C(C)C)C(C)C	HLA class I histocompatibility antigen, A alpha chain, allele A*02:03 (Homo sapiens, UniProt P04439)	peptide binding, radiolabelled peptide competition		together with: radiolabelled standard peptide	IC50	0.0046 µM
FC(F)(F)Oc1ccc(-c2nc3cc4nc5ccccc5nc4cc3[nH]2)cc1	Genome polyprotein protease	enzyme activity, inhibitor, fluorescence		pH 8.5	IC50	71.9 µM
O=C(O)c1cc(-c2ccccc2Cl)n[nH]1	ALPL	enzyme activity, inhibitor, luminescence		together with: 1 M DEA, 50 µM CDP-star	IC50	95.3 ± 14.1 µM
C[C@H](NC(=O)Cc1cc(F)cc(F)c1)C(=O)N[C@H]1N=C(c2ccccc2)c2ccccc2N(C)C1=O	gamma-secretase complex (Cricetulus griseus, UniProt A0A061HTR1+A0A061IL97+A0A8C2QG42+G3HNF2)	APLP2 ICD production, inhibitor	APLP2-His CHO cell microsomes	37 °C	IC50	0.0053 µM

Structure (SMILES)	target or system	assay	test system	setting	endpoint	result
CC(=O)OC[C@H]1O[C@@H]([S-])[C@H](OC(C)=O)[C@@H](OC(C)=O)[C@@H]1OC(C)=O.CCP(CC)CC.[Au+]	mRNA cap guanine-N(7) methyltransferase, with RAM (RNMT, Homo sapiens, UniProt O43148)	N7-methyltransferase activity, inhibitor, Py-FLINT		RNMT-RAM complex, together with: SAM 20 µM	IC50	> 100 µM
CCn1nc(-c2ccccc2)nc2c(=O)n(C)c(=O)nc1-2	Cathepsin B (CTSB, Homo sapiens, UniProt P07858)	enzyme activity, inhibitor, fluorescence			IC50	0.071 µM
O=C([O-])c1ccccc1-c1c2cc(Br)c(=O)cc-2oc2[c]([Hg+])c([O-])c(Br)cc12.[Na+].[Na+].[OH-]	Dual specificity protein phosphatase 5	ERK dephosphorylation, Western blot		1 mM DTT, together with: phospho-ERK	IC50	0.6 ± 0.4 µM
CC(C)C[C@H](NC(=O)N1CCOCC1)C(=O)N[C@H](/C=C/S(=O)(=O)c1ccccc1)CCc1ccccc1	Cathepsin S (CTSS, Homo sapiens, UniProt P25774)	enzyme activity, inhibitor, fluorescence		pH 5.5, with preincubation	IC50	0.0001 µM
CCCCCCCCCC1=C(O)C(=O)c2ccccc2C1=O	COB/RIP1 (Saccharomyces cerevisiae, UniProt P00163+P08067)	enzyme activity, inhibitor		pH 7.0, 23 °C	IC50	0.18 µM
Cc1c(P(=S)(c2ccccc2)c2ccccc2)n2ccccc2[n+]1CCCCc1ccccc1	NPSR1 (Homo sapiens, UniProt Q6W5P4)	calcium signal, antagonist			IC50	0.0011 µM
Fc1cccc(-n2cnc3c(NCc4nc5c(F)c(F)ccc5[nH]4)nc(N4CCOCC4)nc32)c1	Cyclin-dependent kinase 4, with cyclin D3 (CDK4, Homo sapiens, UniProt P11802)	enzyme activity, inhibitor			IC50	0.368 µM
CCN(CC)C(C)CN1c2ccccc2Sc2ccccc21 (stereo not shown)	Dugesia japonica cholinesterase	enzyme activity	planarian homogenate	5 min, together with: butyrylthiocholine 0.1 mM	IC50	91 ± 0.00021 µM
CCCCCCCCCCCCCCCC(=O)N[C@@H](CCC(=O)NCCCC[C@H](NC(=O)[C@H](Cc1ccc(O)cc1)NC(=O)[C@H](CC(=O)O)NC(=O)[C@H](CO)NC(=O)[C@@H](NC(=O)[C@@H](O)Cc1ccccc1)[C@@H](C)CC)C(=O)N[C@H](C(=O)N[C@@H](C)C(=O)N[C@@H](CC(C)C)C(=O)N[C@@H](CC(=O)O)C(=O)N[C@@H](CCCCN)C(=O)N[C@H](C(=O)N[C@@H](CCCNC(=N)N)C(=O)N[C@@H](CCC(N)=O)C(=O)N[C@@H](CCC(N)=O)C(=O)N[C@@H](CCC(=O)O)C(=O)N[C@@H](Cc1ccccc1)C(=O)N[C@H](C(=O)N[C@@H](CC(N)=O)C(=O)N[C@@H](Cc1c[nH]c2ccccc12)C(=O)N[C@@H](CC(C)C)C(=O)N[C@@H](CC(C)C)C(=O)N[C@@H](C)C(=O)N[C@@H](CCC(N)=O)C(=O)N[C@@H](CCCCN)C(=O)NCC(=O)O)C(C)C)[C@@H](C)CC)[C@@H](C)CC)C(=O)O	Gastric inhibitory polypeptide receptor (Mus musculus, UniProt Q0P543)	cAMP response, antagonist, CRE-luciferase reporter	BHK	3 h, 37 °C, together with: 50 pM GIP	IC50	0.014 µM
NCCCOc1ccc(Cl)cc1C(=O)Nc1ccc([N+](=O)[O-])cc1Cl	Genome polyprotein protease	enzyme activity, inhibitor, FRET			IC50	39.7 µM
CCn1cnc2c(Nc3cccc(Cl)c3)nc(N[C@@H]3CCCC[C@@H]3N)nc21	PSMB5 (Homo sapiens, UniProt P28074)	enzyme activity		together with: Suc-LLVY-AMC substrate, ATP	IC50	28 ± 5 µM
c1cncc(OC[C@@H]2CCN2)c1	mouse brain nicotinic receptors		brain	high-affinity site, averaged regions	IC50	0.00026 µM
O=C1OC2(c3cc(Cl)c(O)cc3Oc3cc(O)c(Cl)cc32)c2ccccc21	Dual specificity protein phosphatase 5	phosphatase activity		60 min, 1 mM DTT, together with: pNPP	IC50	200 ± 3.1 µM
COC[C@H](NC(=O)OCc1ccccc1)C(=O)N[C@@H](Cc1ccccc1)C(=O)N[C@@H](CC(C)C)C(=O)C(=O)Nc1ccccc1	Proteasome component C5/PSMB5, chymotrypsin-like site (Homo sapiens, UniProt P20618+P28074)	enzyme activity in cells, inhibitor			IC50	0.243 µM
CC1=NN(c2ccccc2)C(=S)/C1=C/Nc1ccccn1	srtA (Staphylococcus aureus, UniProt Q2FV99)	enzyme activity, inhibitor			IC50	< 5 µM
COP(=O)(OC)SCn1nnc2ccccc2c1=O	rat liver carboxylesterase	enzyme activity, inhibitor	rat, postnatal day 1, liver homogenate	together with: p-nitrophenyl valerate	IC50	0.182 µM
CC[C@H](C)[C@H](N)C(=O)N[C@@H](CO)C(=O)N[C@@H](CCC(N)=O)C(=O)N[C@H](C(=O)N[C@@H](CC(N)=O)C(=O)N[C@@H](CCC(=O)O)C(=O)N[C@@H](CCCCN)C(=O)N[C@H](C(=O)N[C@@H](CC(N)=O)C(=O)N[C@@H](CCC(N)=O)C(=O)N[C@@H](CO)C(=O)N[C@@H](CC(C)C)C(=O)N[C@@H](C)C(=O)N[C@@H](Cc1ccccc1)C(=O)N[C@H](C(=O)N[C@@H](CCCNC(=N)N)C(=O)N[C@@H](CCCCN)C(=O)N[C@@H](CO)C(=O)N[C@@H](CC(=O)O)C(=O)N[C@@H](CCC(=O)O)C(=O)O)[C@@H](C)CC)[C@@H](C)CC)C(C)C	hRSV fusion protein 5-helix bundle	binding, fluorescence polarization		together with: Fl-C35 tracer 5 nM	IC50	36 ± 1 µM
CC1(C)CCC(C)(C)c2cc(C(=O)Nc3ccc(C(=O)O)cc3)ccc21	topA	enzyme activity, inhibitor			IC50	> 250 µM

For quick reference, copied from above:
Structure (SMILES)	target or system	assay	test system	setting	endpoint	result
NCCCOc1ccc(Cl)cc1C(=O)Nc1ccc([N+](=O)[O-])cc1Cl	Genome polyprotein protease	enzyme activity, inhibitor, FRET			IC50	39.7 µM
O=C(O)c1cc(-c2ccccc2Cl)n[nH]1	ALPL	enzyme activity, inhibitor, luminescence		together with: 1 M DEA, 50 µM CDP-star	IC50	95.3 ± 14.1 µM
